Assay results pooled from the literature.
Each line is one published result; not all experiments were run side by side. Numbers after ± are the reported error.

SMILES	tested on	assay	system	setting	scale	endpoint	result
NC(=O)c1cc(-c2ccoc2)cc(F)c1OCCc1cccc(F)c1	HepG2		galactose medium	3 (unit not given)		CC50	31 ± 5.5 µM
CC(=O)N[C@@H]1[C@@H](O[C@H](C)C(=O)N[C@@H](C)C(=O)N[C@H](CCC(=O)O)C(N)=O)[C@H](O)[C@@H](CO)O[C@H]1O	HFF-1			1 µg/mL		viability	87.1%
COc1cc2c3cc1Oc1c(OC)c(OC)cc4c1[C@@H](Cc1ccc(O)c(c1)Oc1ccc(cc1)C[C@@H]3N(C)CC2)N(C)CC4	African green monkey cells			5 days		CC50	10.2 µM
CC[C@H](C)[C@H](NC(=O)[C@H](Cc1ccccc1)NC(=O)[C@H](CCC(=O)O)NC(=O)[C@H](CCCNC(=N)N)NC(=O)[C@H](C)NC(=O)[C@H](C)NC(=O)[C@H](CCC(N)=O)NC(=O)[C@H](CCC(=O)O)NC(=O)[C@H](CCC(=O)O)NC(=O)[C@H](CC(C)C)NC(=O)[C@H](Cc1ccc(O)cc1)NC(=O)[C@H](CO)NC(=O)[C@H](CO)NC(=O)[C@@H](NC(=O)[C@H](CC(=O)O)NC(=O)[C@H](CO)NC(=O)[C@@H](NC(=O)[C@H](Cc1ccccc1)NC(=O)[C@@H](NC(=O)CNC(=O)[C@H](CCC(=O)O)NC(=O)[C@H](C)NC(=O)CCc1c[nH]cn1)[C@@H](C)O)[C@@H](C)O)C(C)C)C(=O)N[C@@H](C)C(=O)N[C@@H](Cc1c[nH]c2ccccc12)C(=O)N[C@@H](CC(C)C)C(=O)N[C@H](C(=O)N[C@@H](CCCNC(=N)N)C(=O)NCC(=O)N[C@@H](CCCNC(=N)N)C(=O)N[C@@H](CCCCNC(=O)COCCOCCNC(=O)COCCOCCNC(=O)CC[C@H](NC(=O)CCCCCCCCCCCCCCCCC(=O)O)C(=O)O)C(=O)NCC(=O)NCC(=O)N[C@@H](CO)C(=O)N[C@@H](CCCCNc1c(NCCCCCN(O)C(=O)CCC(=O)NCCCCCN(O)C(=O)CCC(=O)NCCCCCN(O)C(C)=O)c(=O)c1=O)C(=O)O)C(C)C [zirconium-89 labelled]		gamma counting	rat, stomach-duodenum content	subcutaneous, 3 nmol/kg, 24 h		tissue uptake	0.12 %ID/g
O=C(NC1COC1)c1cc(-c2ccoc2)ccc1OCCc1cccc(F)c1	HepG2			3 (unit not given), human		CC50	41 ± 2 µM
Cn1cncc1[C@@](N)(c1ccc(Cl)cc1)c1ccc2c(c1)c(-c1cccc(Cl)c1)cc(=O)n2C	African green monkey cells			5 days		CC50	13.3 µM
Oc1ccc(C2(c3ccc(O)cc3)c3ccccc3-c3ccccc32)cc1	HepG2 spheroids, dissociated	annexin V-FITC/PI flow cytometry		1 µM, 24 h		early apoptotic cells	13.6 ± 7.39%
CC(=O)N[C@@H](CCCCN)C(=O)N[C@@H](CCCCN)C(=O)N[C@@H](CC(C)C)C(=O)N[C@@H](CC(C)C)C(=O)N[C@@H](CCCCN)C(=O)N[C@@H](CC(C)C)C(=O)N[C@@H](CC(C)C)C(=O)N[C@@H](CCCCN)C(=O)N[C@@H](CCCCN)C(=O)N1CCC[C@H]1C(=O)N[C@@H](CC(C)C)C(=O)N[C@@H](CCCCN)C(=O)N[C@@H](CC(C)C)C(=O)N[C@@H](CC(C)C)C(=O)N[C@@H](C)C(N)=O	human red blood cells	haemolysis		6 h, 37 °C, 5% haematocrit in PBS		MHC10	> 160 µM
C=CCn1c(=O)n([C@@H]2O[C@H](CO)[C@@H](O)[C@H]2O)c2nc(N)[nH]c(=O)c21	HFF-1			1000 µM, 48 h		viability	98.6%
CC[C@H](C)[C@H](NC(=O)[C@H](C)NC(=O)[C@H](CCCCN)NC(=O)[C@H](CC(N)=O)NC(=O)[C@@H](NC(=O)[C@H](CCCCN)NC(=O)[C@H](CCCCN)NC(=O)[C@H](CC(C)C)NC(=O)[C@@H](NC(=O)[C@H](CCCCN)NC(=O)CNC(=O)[C@@H](NC(=O)CNC(=O)[C@H](CC(N)=O)NC(=O)[C@@H](NC(=O)CNC(=O)[C@H](Cc1ccc(O)cc1)NC(=O)[C@H](CCCNC(=N)N)NC(=O)[C@H](CCSC)NC(=O)[C@@H](NC(=O)[C@H](CCSC)NC(=O)[C@H](C)NC(=O)[C@H](CC(C)C)NC(=O)[C@H](CCC(N)=O)NC(=O)[C@H](CCCCN)NC(=O)[C@H](CCCCN)NC(=O)[C@@H](NC(=O)[C@@H](N)CCCNC(=N)N)[C@@H](C)O)C(C)C)C(C)C)C(C)C)[C@@H](C)CC)[C@@H](C)CC)C(=O)N[C@H](C(=O)N[C@@H](CO)C(=O)N[C@@H](CCCCN)C(=O)N[C@@H](CCCCN)C(=O)N[C@@H](CC(N)=O)C(=O)N[C@@H](CCCCN)C(=O)O)C(C)C	human red blood cells	hemolysis				HC50	193 µmol/L
O=S(=O)(c1ccc(O)cc1)c1ccc(O)cc1	HepG2 spheroids, dissociated	annexin V-FITC/PI flow cytometry		1 µM, 96 h		early apoptotic cells	5.94 ± 1.02%
O=c1ccc2ccccc2o1	NHEK		keratinocyte growth medium	concentration not given, 24 h, oxidative stress panel		DNA structure change, chance of response	64.9%
CC(C)C[C@H](NC(=O)CNC(=O)[C@H](CCCCN)NC(=O)[C@H](CC(C)C)NC(=O)[C@H](CC(C)C)NC(=O)[C@H](CC(C)C)NC(=O)[C@@H](N)CCCCN)C(=O)NCC(=O)N[C@@H](CCCCN)C(=O)N[C@@H](CC(C)C)C(=O)N[C@@H](CC(C)C)C(=O)N[C@@H](CC(C)C)C(=O)N[C@@H](CCCCN)C(=O)O	HEK-293T cells	CCK-8		4 h, 37 °C, 10% cell death		lowest cytotoxic concentration	256 µg/mL
CC(c1ccccc1)(c1ccc(O)cc1)c1ccc(O)cc1	HepG2 spheroids	annexin V-FITC/PI flow cytometry		1 µM, 96 h		necrotic cells	39.5 ± 14.1%
CCOP(=S)(OCC)Oc1cc(C)nc(C(C)C)n1	rat hepatoma cells	cell confluency		24 h, nominal concentration	reference: baseline IC10 over IC10	toxic ratio	0.77
CN(C)CCON=C1c2ccccc2CCc2ccccc21	African green monkey cells			5 days		CC50	77.6 µM
COc1cc2c(c(OC)c1OC)-c1ccc(OC)c(=O)cc1[C@@H](NC(C)=O)CC2	human peripheral blood lymphocytes			0.05 µg/mL, 24 h, without S9		cytostasis	100%

SMILES	tested on	assay	system	setting	scale	endpoint	result
CC[C@H](C)[C@H](NC(=O)CNC(=O)[C@H](CCSC)NC(=O)[C@H](CO)NC(=O)[C@@H](NC(=O)[C@H](CCC(N)=O)NC(=O)[C@H](CC(C)C)NC(=O)CNC(=O)[C@@H](NC(=O)[C@H](CO)NC(=O)[C@H](CCCCN)NC(=O)[C@H](CC(C)C)NC(=O)[C@H](CCCCN)NC(=O)[C@H](CCCCN)NC(=O)[C@H](CCCCN)NC(=O)[C@@H](NC(=O)[C@H](CCCCN)NC(=O)[C@@H]1CSSC[C@H](NC(=O)[C@H](CCCCN)NC(=O)[C@@H](N)CCCCN)C(=O)N[C@@H](CCCCN)C(=O)N[C@@H](Cc2ccccc2)C(=O)N[C@@H](CC(C)C)C(=O)N1)C(C)C)C(C)C)[C@@H](C)CC)C(=O)O	RAW264.7	MTT		24 h		lowest toxic concentration	> 6.25 µM
COc1cc(Br)c2oc(C3CCNCC3)cc2c1	African green monkey cells			5 days		CC50	19.1 µM
Nc1nc2c(ncn2[C@@H]2O[C@@H]3COP(=O)(O)O[C@H]4[C@@H](O)[C@H](n5cnc6c(N)ncnc65)O[C@@H]4COP(=O)(O)O[C@@H]2[C@@H]3O)c(=O)[nH]1	HFF-1			0.1 µg/mL		viability	94.3%
Cc1cccc(C)c1N(Cn1cccn1)C(=O)CCl	MCF7 AREc32			24 h, nominal concentration	reference: baseline IC10 over IC10	toxic ratio	0.29
CNC(=O)c1cc(C)ccc1OCCc1ccc(C2CC2)cc1	HepG2			3 (unit not given)	reference: CC50 glucose over CC50 galactose	selectivity ratio	1
CC(=O)N[C@@H](CCCCN)C(=O)N[C@@H](CC(C)C)C(=O)N[C@@H](CC(C)C)C(=O)N[C@@H](CCCCN)C(=O)N[C@@H](CC(C)C)C(=O)N[C@@H](CC(C)C)C(=O)N[C@@H](CCCCN)C(=O)N[C@@H](CCCCN)C(=O)N1CCC[C@H]1C(=O)N[C@@H](CC(C)C)C(=O)N[C@@H](CCCCN)C(=O)N[C@@H](CC(C)C)C(=O)N[C@@H](CC(C)C)C(=O)N[C@@H](CCCCN)C(N)=O	human red blood cells	haemolysis		6 h, 37 °C, 5% haematocrit in PBS		MHC10	> 160 µM
C[C@@H](O)[C@@H](CO)NC(=O)[C@@H](CCCNC(=N)N)NC(=O)[C@@H]1CCCN1C(=O)[C@@H]1CSSC[C@H](NC(=O)[C@H](Cc2ccccc2)NC(=O)CN2CCN(CC(=O)O)CCN(CC(=O)O)CCN(CC(=O)O)CC2)C(=O)N[C@@H](Cc2ccc(O)cc2)C(=O)N[C@@H](Cc2ccccc2)C(=O)N[C@@H](CCC(N)=O)C(=O)N[C@@H](CC(N)=O)C(=O)N1 [gallium-68 labelled]			Wistar rat, kidneys	intravenous, 8 MBq, 120 min, group mean		tissue uptake	1.71 %ID/g
CS(=O)(=O)c1cc(Br)cc(NCc2cccc(CN3C[C@H](O)[C@@H](O)[C@H](O)[C@H]3CO)c2)c1	A549 expressing ACE2	WST-1		25 µM, 3 days		viability	100%
CC1(C)CCC(c2ccc(Cl)cc2)=C(CN2CCN(c3ccc(C(=O)NS(=O)(=O)c4ccc(N[C@H](CCN5CCOCC5)CSc5ccccc5)c(S(=O)(=O)C(F)(F)F)c4)cc3)CC2)C1	African green monkey cells			5 days		CC50	4.73 µM
N[C@H](CCC(=O)N[C@H](CCC[C@H](N)C(=O)O)C(=O)O)C(=O)O	HFF-1			1 µg/mL		viability	89.3%
CC(=O)N[C@@H](CCCCN)C(=O)N[C@@H](CC(C)C)C(=O)N[C@@H](CC(C)C)C(=O)N[C@@H](CCCCN)C(=O)N[C@@H](CC(C)C)C(=O)N[C@@H](CC(C)C)C(=O)N[C@@H](CCCCN)C(=O)N[C@@H](CCCCN)C(=O)N1CCC[C@H]1C(=O)N[C@@H](CC(C)C)C(=O)N[C@@H](CCCCN)C(=O)N[C@@H](CC(C)C)C(N)=O	human red blood cells	haemolysis		6 h, 37 °C, 5% haematocrit in PBS		MHC10	> 160 µM
CC[C@H](C)[C@@H]1NC(=O)[C@@H]2CCCN2C(=O)[C@H](CC(C)C)NC(=O)[C@H](CC(C)C)NC(=O)CNC(=O)[C@@H](NC(=O)[C@@H](NC(=O)[C@H](CC(=O)O)NC(=O)CNC(=O)[C@@H](NC(=O)[C@H](C)NC(=O)CNC(=O)[C@H](CCCCN)NC(=O)[C@H](CC(C)C)NC(=O)[C@H](CC(C)C)NC(=O)[C@H](CCCCN)NC(=O)CNC(=O)[C@@H](NC(=O)[C@@H](N)CC(C)C)C(C)C)C(C)C)C(C)C)CSSC[C@@H](C(=O)O)NC1=O		RNA-seq, item: Plekhg6	mouse, traumatic brain injury model, frontal cortex and hippocampus	dose not given	reference: TBI alone	log2 fold change	-1.76
CN(CCC(Oc1ccc(C(F)(F)F)cc1)c1ccccc1)N=O (stereo not shown)	TK6 expressing CYP2C19			0.062 µM, 4 h, without S9	reference: vehicle	relative survival	13.7%
CC[C@H](C)[C@H](NC(=O)[C@H](CC(=O)O)NC(=O)[C@@H](NC(=O)[C@H](CC(N)=O)NC(=O)[C@@H]1CCCN1C(=O)[C@@H](NC(=O)[C@@H](N)Cc1ccccc1)[C@@H](C)O)[C@@H](C)O)C(=O)N[C@H](C(=O)N[C@H](C(=O)N[C@@H](CCCNC(=N)N)C(=O)N[C@H](C(=O)N[C@H](C(=O)NCC(=O)NCC(=O)NCC(=O)N[C@@H](CC(C)C)C(=O)N[C@@H](CCCCN)C(=O)N[C@@H](CCCCN)C(=O)N[C@@H](CC(C)C)C(=O)N[C@@H](CC(C)C)C(=O)N[C@@H](CC(C)C)C(=O)N[C@@H](CC(C)C)C(=O)N[C@@H](CC(C)C)C(=O)N[C@@H](CCCCN)C(=O)N[C@@H](CCCCN)C(=O)N[C@@H](CC(C)C)C(=O)NCC(=O)O)[C@@H](C)O)[C@@H](C)O)[C@@H](C)O)[C@@H](C)CC	HEK-293T cells	CCK-8		4 h, 37 °C, 10% cell death		lowest cytotoxic concentration	128 µg/mL
COc1cc2c(c(OC)c1OC)-c1ccc(OC)c(=O)cc1[C@@H](NC(C)=O)CC2	HepG2 spheroids	flow cytometry, item: phospho-histone H3		0.1 µM, 96 h	reference: solvent control	mitotic cells	1.65 fold
CC[C@H](C)[C@H](N)C(=O)N[C@@H](CCCNC(=N)N)C(=O)N[C@@H](CCCNC(=N)N)C(=O)N[C@@H](C)C(=O)N[C@H](C(=O)N[C@@H](CC(N)=O)C(=O)N[C@@H](CCCCN)C(=O)N[C@@H](Cc1ccc(O)cc1)C(=O)N1CCC[C@H]1C(=O)N1CCC[C@H]1C(=O)N[C@H](C(=O)N[C@@H](CC(N)=O)C(=O)N[C@@H](CC(C)C)C(=O)N[C@@H](CCCCN)C(=O)N[C@H](C(=O)N[C@@H](CCCCN)C(=O)N[C@@H](CS)C(=O)N[C@@H](CC(N)=O)C(=O)N[C@@H](CCCNC(=N)N)C(=O)N[C@@H](CC(C)C)C(=O)N[C@@H](CC(N)=O)C(=O)N[C@@H](CO)C(=O)N[C@H](C(=O)N[C@@H](CC(=O)O)C(=O)N1CCC[C@H]1C(=O)N[C@@H](CCCCN)C(=O)N[C@@H](CCC(N)=O)C(=O)N1CCC[C@H]1C(=O)N1CCC[C@H]1C(=O)N[C@@H](CCCNC(=N)N)C(=O)N1CCC[C@H]1C(=O)N[C@@H](Cc1ccccc1)C(=O)N[C@@H](CCCNC(=N)N)C(=O)N[C@@H](CO)C(=O)N[C@@H](Cc1ccccc1)C(=O)N[C@H](C(=O)N1CCC[C@H]1C(=O)NCC(=O)N1CCC[C@H]1C(=O)N[C@@H](CC(C)C)C(=O)N[C@@H](CCCCN)C(=O)N[C@@H](C)C(=O)N[C@H](C(=O)N[C@@H](CC(C)C)C(=O)N[C@@H](CCCCN)C(=O)O)[C@@H](C)O)C(C)C)[C@@H](C)CC)[C@@H](C)CC)[C@@H](C)CC)[C@@H](C)CC	human red blood cells	hemolysis				HC50	34 µmol/L
C=C(C)[C@H]1Cc2c(ccc3c2O[C@@H]2COc4cc(OC)c(OC)cc4[C@@H]2C3=O)O1	THLE-2 transduced with P450 mix	metabolism-induced cytotoxicity		48 h, 3D Matrigel spots		IC50	0.4 ± 0.1 µM
